Results collected from several papers.
Protocols differ between the studies behind these lines.
Organism: Escherichia coli

Compound = COc1ccc2ccc3c(c2c1)C=[N+]1C2CCCCC2[N+]2=Cc4ccc(-c5ccccc5)cc4[O][Au-]21[O]3.F[P-](F)(F)(F)(F)F (centres unmarked); assay = bacterial growth, broth microdilution; system = carbapenem-resistant clinical isolate; setting = 24 h; MIC = > 20 µM
Compound = CCn1cc[n+](CC)[c]1[Au-][Cl]; assay = broth dilution; system = DSM 1116; setting = 20 h, 37 °C; MIC = 22.4 µM
Compound = O=C1c2ccccc2C(=O)c2c1ccc1c2C(C(=O)NCc2ccccc2)C(=O)C1c1ccccc1 (centres unmarked); assay = microbial growth; MIC = > 100 µg/mL
Compound = CCN(CC)CCCN1/C(=C/c2cc(C)[n+](C)c3ccccc23)Sc2ccccc21; assay = microbial growth, broth dilution; system = ATCC 8739, ATCC8739; MIC = 4 µg/mL
Compound = COc1ccc2ccc3c(c2c1)C=[N+]1C2CCCCC2[N+]2=Cc4ccc(F)cc4[O][Au-]21[O]3.F[P-](F)(F)(F)(F)F (centres unmarked); assay = bacterial growth, broth microdilution; system = carbapenem-resistant clinical isolate; setting = 24 h; MIC = 20 µM
Compound = CO[C@H]1[C@H](O)[C@@H](N)[C@@H](O[C@H]2[C@H](O[C@@H]3O[C@H](CO)[C@@H](O[C@H]4O[C@@H](CN)[C@@H](O)[C@H](O)[C@H]4N)[C@H]3O)[C@@H](O)[C@H](N)C[C@@H]2N)O[C@@H]1CO; assay = broth microdilution; system = clinical isolate AG 003; MIC = ≥ 128 µg/mL
Compound = C/C(=N/NC(=N)N)c1nnn(-c2ccc(C#CC(C)(C)O)cc2)c1C; assay = microbial growth, broth dilution; system = BW25113; MIC = > 64 µg/mL
Compound = CC1OCC2OC(OC3C(N)CC(N)C(O)C3OC3OC(CO)C(OC4OC(CN)C(O)C(O)C4N)C3O)C(N)C(O)C2O1 (centres unmarked); assay = broth microdilution; system = clinical isolate AG 055; MIC = 64 µg/mL
Compound = Cc1[nH]c(=O)c(CNC(=O)c2ccc(C(F)(F)F)nc2)c2c1CCCC2; assay = microbial growth; system = ATCC25922; MIC = > 128 µg/mL
Compound = CC[C@@H](C)[C@@H](NC(=O)[C@@H](C)N)C(=O)N[C@H](CCCCN)C(=O)N[C@@H](C(=O)N[C@H](CCCNC(=N)N)C(=O)N[C@H](CCCCN)C(=O)N[C@H](CC(C)C)C(=O)N[C@H](Cc1ccccc1)C(=O)N[C@H](CCCCN)C(=O)N[C@H](CCCCN)C(=O)N[C@H](CC(C)C)C(=O)N[C@H](CC(C)C)C(=O)N[C@H](CCCNC(=N)N)C(N)=O)[C@H](C)CC; assay = broth microdilution; system = ATCC 25922, LB medium; setting = 16 to 20 h, 37 °C; MIC = 12.5 to 25 µg/mL
Compound = COCO[C@H]1[C@H](O)[C@@H](N)[C@@H](O[C@H]2[C@H](O[C@@H]3O[C@H](CO)[C@@H](O[C@H]4O[C@@H](CN)[C@@H](O)[C@H](O)[C@H]4N)[C@H]3O)[C@@H](O)[C@H](N)C[C@@H]2N)O[C@@H]1CO; assay = broth microdilution; system = clinical isolate AG 001; MIC = 128 µg/mL
Compound = COc1ccc2ccc3c(c2c1)C=[N+]1C2CCCCC2[N+]2=Cc4cccc(F)c4[O][Au-]21[O]3.F[P-](F)(F)(F)(F)F (centres unmarked); assay = bacterial growth, broth microdilution; system = carbapenem-resistant; setting = 24 h; MIC = 20 µM
Compound = C/C(=N\Nc1nc(-c2ccccc2)cs1)c1ccc2c(c1)sc1nc(=O)c(C#N)cn12; assay = microbial growth, broth dilution; MIC = < 36 µg/mL
Compound = COc1ccc2ccc3c(c2c1)C=[N+]1C2CCCCC2[N+]2=Cc4cc(C)ccc4[O][Au-]21[O]3.F[P-](F)(F)(F)(F)F (centres unmarked); assay = bacterial growth, broth microdilution; system = carbapenem-resistant clinical isolate; setting = 24 h; MIC = > 20 µM
Compound = c1ccc(CN2CCOCCOCCN(CCCCCCCCCCCCCCN3CCOCCOCCN(CCCCCCCCCCCCCCN4CCOCCOCCN(Cc5ccccc5)CCOCCOCC4)CCOCCOCC3)CCOCCOCC2)cc1; system = Tol-; MIC = 3 µM
Compound = CCCSC1COC(=O)N1/N=C/c1ccc([N+](=O)[O-])o1 (centres unmarked); assay = microbial growth, broth dilution; system = ATCC25922; setting = 18 h; MIC = > 50 µg/mL
Compound = C/C(=N\Nc1nc(C)cs1)c1ccc2c(c1)sc1nc(=O)c(C#N)cn12; assay = broth microdilution; MIC = < 41 µg/mL
Compound = CC(C)C[C@@H](NC(=O)[C@@H](CCCCN)NC(=O)[C@@H](CCCCNC(=O)[C@@H](CC(C)C)NC(=O)[C@@H](CCCCN)NC(=O)[C@@H](CCCCNC(=O)[C@@H](CC(C)C)NC(=O)[C@@H](CCCCN)NC(=O)[C@@H](CCCCNC(=O)[C@@H](CC(C)C)NC(=O)[C@H](N)CCCCN)NC(=O)[C@@H](CC(C)C)NC(=O)[C@H](N)CCCCN)NC(=O)[C@@H](CC(C)C)NC(=O)[C@@H](CCCCN)NC(=O)[C@@H](CCCCNC(=O)[C@@H](CC(C)C)NC(=O)[C@H](N)CCCCN)NC(=O)[C@@H](CC(C)C)NC(=O)[C@H](N)CCCCN)NC(=O)[C@@H](CC(C)C)NC(=O)[C@@H](CCCCN)NC(=O)[C@@H](CCCCNC(=O)[C@@H](CC(C)C)NC(=O)[C@@H](CCCCN)NC(=O)[C@@H](CCCCNC(=O)[C@@H](CC(C)C)NC(=O)[C@H](N)CCCCN)NC(=O)[C@@H](CC(C)C)NC(=O)[C@H](N)CCCCN)NC(=O)[C@@H](CC(C)C)NC(=O)[C@@H](CCCCN)NC(=O)[C@@H](CCCCNC(=O)[C@@H](CC(C)C)NC(=O)[C@H](N)CCCCN)NC(=O)[C@@H](CC(C)C)NC(=O)[C@H](N)CCCCN)C(N)=O; assay = broth microdilution; system = W3110; setting = 37 °C; MIC = 1 µg/mL
Compound = COc1c2c(cc3oc(=O)cc(-c4ccc(Cl)cc4)c13)C(=O)c1cc(C)cc(O)c1C2=O; assay = microbial growth; MIC = 32 µg/mL
Compound = CC(C)c1ccc2c(c1)CCC1C(C)(CN(CC(O)C[N+](C)(C)C)CC(O)C[N+](C)(C)C)CCCC21C (centres unmarked); assay = microbial growth, broth dilution; system = ATCC25922; setting = 16 h; MIC = 250 µg/mL
Compound = COc1c(NC(=O)c2ccc(NC(=O)c3ccc(NC(=O)[C@H](CC#N)NC(=O)c4ccc(NC(=O)/C(C)=C/c5ccc(O)cc5)cc4)cc3)c(OC)c2O)ccc(C(=O)O)c1O; system = DSM 1116; MIC = 0.125 µg/mL
Compound = CCCCCCCCCCN1C(=O)/C(=N\NC(N)=S)c2cc(C)ccc21; assay = microbial growth, broth dilution; setting = 18 h; MIC = > 192 µg/mL
Compound = CC1=NN(CNc2ccc(C(=O)O)c(O)c2)C(=O)/C1=N/Nn1c(-c2ccccc2)nc2ccccc2c1=O; assay = microbial growth, broth dilution; setting = 24 h; MIC = 24.4 µM
Compound = CCCCc1ccc(N2C(=O)/C(=N\NC(=N)N)c3cc(C)ccc32)cc1; assay = microbial growth, broth dilution; setting = 18 h; MIC = 12 µg/mL
Compound = CO[C@H]1CN(c2ccc(C(N)=O)nn2)CC[C@H]1NC(=O)c1[nH]c(C)c(Cl)c1Cl; system = ATCC 25922; MIC = 8 µg/mL
Compound = COc1ccc2c3c(oc2c1CC=C(C)C)-c1cc(CC=C(C)C)c(O)cc1OC3; system = TISTR 780; MIC = 128 µg/mL
Compound = CCN(CC)c1ccc(/C=N/NC(=O)c2cc(Cl)cc(Cl)c2)c(O)c1; assay = broth dilution; system = brain heart infusion broth; setting = 24 h, 37 °C; MIC = > 100 µM
Compound = [N-]=[N+]=NC1COC(=O)N1/N=C/c1ccc([N+](=O)[O-])o1 (centres unmarked); assay = microbial growth, broth dilution; system = ATCC25922; setting = 18 h; MIC = 1.56 µg/mL
Compound = COc1cc2c(=O)c(C(=O)NCCNCCO)cn(Cc3ccccc3)c2cc1OCc1ccc(C(C)(C)C)cc1; system = ATCC 25922; how to read = ≥80% growth inhibition; MIC = 1 µg/mL

Some of these lines once more:
Compound = Cc1[nH]c(=O)c(CNC(=O)c2ccc(C(F)(F)F)nc2)c2c1CCCC2; assay = microbial growth; system = ATCC25922; MIC = > 128 µg/mL
Compound = CC[C@@H](C)[C@@H](NC(=O)[C@@H](C)N)C(=O)N[C@H](CCCCN)C(=O)N[C@@H](C(=O)N[C@H](CCCNC(=N)N)C(=O)N[C@H](CCCCN)C(=O)N[C@H](CC(C)C)C(=O)N[C@H](Cc1ccccc1)C(=O)N[C@H](CCCCN)C(=O)N[C@H](CCCCN)C(=O)N[C@H](CC(C)C)C(=O)N[C@H](CC(C)C)C(=O)N[C@H](CCCNC(=N)N)C(N)=O)[C@H](C)CC; assay = broth microdilution; system = ATCC 25922, LB medium; setting = 16 to 20 h, 37 °C; MIC = 12.5 to 25 µg/mL
